Published values pooled from the literature.
Lines come from different studies, so protocols differ.

With `Cc1ncnc2c1ccn2[C@@H]1C[C@H](Oc2cc(C(F)F)c(F)c3c2CNCC3)[C@@H](O)[C@H]1O` the Tmax was 5.6 h (human; oral, 0.5 mg twice daily).
For `CC1(COc2ccc3c(c2)ncn3-c2ccc3cccc(N4CCC(N)CC4)c3n2)COC1`, the Tmax was 4 h (human patients, recurrent/progressive HGG or DIPG, serum; oral, 170 mg/m^2, day 28, median).
The Tmax of `Cc1ccc(C)c(OCCCC(C)(C)C(=O)O)c1` is reported as 1.4 h (human, plasma; oral, 600 mg, before lopinavir/ritonavir, geometric mean).
`CCS(=O)(=O)Nc1ccc(Oc2ccc(F)cc2F)c(-c2cn(C)c(=O)c3[nH]ccc23)c1` gave a Tmax of 3 h (human, plasma; oral, 2.5 mg, cycle 1 day 8, median).
With `NC[C@@]1(CC(=O)O)[C@@H]2CC[C@H]3C[C@@H]2[C@@H]1C3` the Tmax was 1.5 h (human, moderate renal impairment, plasma; oral, 20 mg single dose, median).
`O=C(O)CCC(=O)O.[2H]C([2H])([2H])Oc1cc(C)c2[nH]ccc2c1CN1CC[C@@H](C2CC2)C[C@H]1c1ccc(C(=O)O)cc1` gave a Tmax of 3.5 h (healthy humans, fasted, plasma; oral, 200 mg, single dose).
With `Cc1noc(C)c1-c1cc(C(O)(c2ccccn2)c2ccccn2)c2nc(C3CC3)[nH]c2c1` the Tmax was 0.58 h (human male patients, fasted, plasma; oral, 4 mg once daily, cycle 1 day 8).
The Tmax of `O=C(c1cc(Cc2n[nH]c(=O)c3ccccc23)ccc1F)N1CCN(C(=O)C2CC2)CC1` is reported as 1 h (human, plasma; oral, 25 mg, cycle 1 day 0, dose level -1).
The Tmax of `O=C(O)C[C@H](O)C[C@H](O)/C=C/c1c(C2CC2)nc2ccccc2c1-c1ccc(F)cc1` is reported as 0.9 h (OATP1B1/1B3 humanized mouse, plasma; oral, 5 mg/kg).
`COc1ccc([C@@H]2CN(C(=O)[C@@H](O)CO)C[C@@]2(C)[C@@H](C)O)cc1OC1CN(c2ccc(C)cn2)C1` gave a Tmax of 1 h (healthy humans, plasma; oral, 20 mg).
`Cc1cc(C)c(CNC(=O)c2cc(Cl)c3c(c2C)O[C@@](C)([C@H]2CC[C@H](N(C)C)CC2)O3)c(=O)[nH]1` gave a Tmax of 2.48 h (human, NHL patients, plasma; oral, 200 mg/day, cycle 1 day 15, once daily).
The Tmax of `N#CCC1CCN(c2nc(Nc3ccc(N4CCC(O)CC4)cc3)c3c(=O)[nH]ncc3n2)CC1` is reported as 3 h (LC-MS/MS; human, plasma; oral, 80 mg once daily, day 15, median).
For `C[C@H](Oc1ccc(Br)cc1-c1ccon1)C(=O)O`, the Tmax was 3 h (LC-MS/MS, non-compartmental; human, plasma; 600 mg once daily, day 1, multiple ascending dose, median).
For `N#Cc1ccc2c(c1)[C@H]1CCCN(C(=O)c3ccc4[nH]cnc4c3)[C@H]1C2`, the Tmax was 1 h (human, plasma; oral, 240 mg once daily, after first dose, median).
`CC(C)NC(=O)COc1cccc(-c2nc(Nc3ccc4[nH]ncc4c3)c3ccccc3n2)c1` has a Tmax of 2 h (human male, plasma; oral, 200 mg once daily, day 13, fed, median, together with: rosuvastatin).
`Cn1cncc1[C@@](N)(c1ccc(Cl)cc1)c1ccc2c(c1)c(-c1cccc(Cl)c1)cc(=O)n2C` gave a Tmax of 1.7 to 24 h (human, plasma; oral, 300 mg/m^2, range, first dose).
For `Cc1cn(C(=O)c2c(-c3c(Cl)cc(Cl)cc3Cl)noc2C(C)(C)F)c2cccc(/C=C/C(=O)O)c12`, the Tmax was 4 h (human patients; 700 mg bid, cycle 1 day 1).
The Tmax of `CCCCOc1nc(N)c2c(n1)N(Cc1cccc(CN3CCCC3)c1)CC(=O)N2` is reported as 3 h (human; oral, 2 mg, median).
With `C#C[C@]1(COP(=O)(O)OP(=O)(O)O)O[C@@H](n2cnc3c(N)nc(F)nc32)C[C@@H]1O` the Tmax was 24 h (refers to: islatravir triphosphate; human, PBMC; oral, 15 mg single dose).
`COc1ncc(-c2nc3c(n2C(C)C)[C@H](c2ccc(Cl)cc2)N(c2cc(Cl)cn(C)c2=O)C3=O)c(OC)n1` has a Tmax of 2.1 h (LC-MS/MS, noncompartmental; human, plasma; oral, 120 mg, C1D1, high-dose, median).
For `N#Cc1ccc(C(c2ccc(C#N)cc2)n2cncn2)cc1`, the Tmax was 2 h (human; 125 mg).
For `CCN(CC)CCNC(=O)c1c(C)[nH]c(/C=C2\C(=O)Nc3ccc(F)cc32)c1C`, the Tmax was 1.8 h (human, plasma; oral, cycle 1 day 1).
`C#C[C@]1(COP(=O)(O)O)O[C@@H](n2cnc3c(N)nc(F)nc32)C[C@@H]1O` gave a Tmax of 6 h (human, fed, PBMC; oral, 30 mg single).
`Cn1ncnc1[C@H]1c2n[nH]c(=O)c3cc(F)cc(c23)N[C@@H]1c1ccc(F)cc1` gave a Tmax of 2 h (human patients, plasma; oral, 400 µg/m2 twice daily, day 1, monotherapy, dose level DL2, median).
`COc1ccc2c3c1O[C@H]1C[C@@H](OC(=O)c4ccccc4)C=C[C@@]31CCN(C)C2` has a Tmax of 0.5 h (human, plasma; intranasal, 22 mg single dose).
`CC(F)(F)c1cc(F)ccc1-c1sc2cc(O)ccc2c1Oc1ccc(/C=C/C(=O)O)cc1` gave a Tmax of 2.1 h (human patients, serum; oral, 300 mg once daily, cycle 1 day 28, regular meal, median, together with: alpelisib).
For `CCCCCCCOc1ccc(CCC(N)(CO)CO)cc1C(F)(F)F.Cl`, the Tmax was 10 h (healthy human males, plasma; 0.75 mg, day 21, median).
For `CC(C)n1c(Nc2cccnc2)nc2cnc(Nc3ccc(N4CCN(C)CC4)cc3)nc21`, the Tmax was 1 h (human, male, plasma; oral, 150 mg, day 15, median, together with: rifampin 600 mg daily).
For `C#C[C@]1(CO)O[C@@H](n2cnc3c(N)nc(F)nc32)C[C@@H]1O`, the Tmax was 1.25 h (human, plasma; oral, 30 mg single dose, fed).
`Cc1cc(-c2nnc(N)nc2-c2ccc(F)cc2)cc(Cl)n1` has a Tmax of 3 h (human patients, plasma; oral, 150 mg capsule once daily, multiple doses, median).
`CN(C)CCCNC(=O)/C(=C/CCCCC(=O)NO)COc1cccc2ccccc12` has a Tmax of 0.36 h (human; iv, 250 mg/m2, day 1, single dose, mean).
`COc1ccc([C@@H](O)c2cc(-c3ncnc4cc(N5CCOCC5)ccc34)c(F)cc2Cl)nn1` gave a Tmax of 2.43 h (plasma pharmacokinetics; human; oral, 250 mg capecitabine, single dose, median).
`CCNCCCNC/C=C\CNCCCNCC` has a Tmax of 0.75 h (LC-MS/MS; human cancer patients, plasma; intravenous infusion 60 min, 200 mg, median, cycle 1).
`CN(CC#N)C(=O)C[C@H](Nc1nc2ccccc2[nH]1)c1cccc(C(F)(F)F)c1` gave a Tmax of 0.48 h (human; intravenous infusion, 5 mg/kg, 1 mg/mL formulation).
For `C[C@H]1[C@@H](O)O[C@@H]2O[C@@]3(C)CC[C@H]4[C@H](C)CC[C@@H]1[C@@]24OO3`, the Tmax was 0.55 h (human, both sexes, plasma; oral, dose not given, fixed-dose combination).
`COc1ccc([C@@H](O)c2cc(-c3ncnc4cc(N5CCOCC5)ccc34)c(F)cc2Cl)nn1` has a Tmax of 1.42 h (human, plasma; oral, 200 mg once daily, single dose, median).
The Tmax of `CC(C)[C@H](N)C(=O)NCCCS(=O)(=O)O` is reported as 0.5 h (median; human, plasma; oral, 340 mg once daily days 8-14, day 14, fasted, capsule).
For `Cc1cc(-c2nccc3c2ccn3CC(=O)Nc2ccc(-c3cnccn3)cn2)ccn1`, the Tmax was 1.3 h (human, plasma; oral, 15 mg once daily, day 16, median).
For `CC(C)(C(=O)NC1C2CC3CC1CC(C(N)=O)(C3)C2)N1CCN(c2ccc(C(F)(F)F)cn2)CC1` (centres unmarked), the Tmax was 1.6 h (human, plasma; 10 mg once daily, 5 days, median).
`CN[C@@H](C)C(=O)N[C@H]1CN(S(=O)(=O)c2cccc(S(=O)(=O)N3CC[C@H]4CC[C@@H](C(=O)NC(c5ccccc5)c5ccccc5)N4C(=O)[C@@H](NC(=O)[C@H](C)NC)C3)c2)CC[C@H]2CC[C@@H](C(=O)NC(c3ccccc3)c3ccccc3)N2C1=O` gave a Tmax of 0.47 h (human, plasma; intravenous infusion, 20 mg, cycle 1 day 15).
For `CCn1cc(C(=O)N2CCOCC2)c(=O)c2cc(NC3Cc4ccccc4C3)cnc21`, the Tmax was 1.75 h (human, fasted; oral tablet, 300 mg single dose, median).
`C#Cc1cccc(Nc2ncnc3cc(OCCOC)c(OCCOC)cc23)c1` gave a Tmax of 3 to 4 h (human; oral, 100 mg daily).
`COc1ccccc1OCC(O)CN1CCN(CC(=O)Nc2c(C)cccc2C)CC1` (centres unmarked) gave a Tmax of 1 h (human; oral, 12 mg/kg/day).
The Tmax of `Cn1cncc1-c1c(F)cncc1NC(=O)c1c(N)nn2cc(F)cnc12` is reported as 1.7 h (human patients, plasma; oral, 90 mg).
The Tmax of `CNC(=O)c1cc(Oc2ccc(NC(=O)Nc3ccc(Cl)c(C(F)(F)F)c3)cc2)ccn1` is reported as 2.3 h (human, plasma; oral, 200 mg daily, median, dose level -4, together with: carboplatin AUC 2, gemcitabine 500 mg/m2).
For `COc1nnc2ccc(N3CCC(c4ccc(OCCN5CCN(C)C(=O)[C@H]5C)cc4)CC3)nn12`, the Tmax was 2.98 h (human, plasma; oral, 10 mg once daily, single dose, monotherapy).
With `CCCCCCCCCCCCCCCC(=O)N[C@@H](CCC(=O)NCCCC[C@@H]1NC(=O)[C@H]([C@@H](C)CC)NC(=O)[C@@H](NC(=O)[C@@H]2CCCN2C(=O)[C@H](Cc2ccccc2)NC(=O)[C@H](Cc2c[nH]cn2)NC(=O)[C@@H](NC(=O)[C@H](CC(=O)O)NC(=O)CC(C)C)[C@@H](C)O)CSSC[C@@H](C(=O)N[C@@H](CCCCN)C(N)=O)NC(=O)CNC(=O)[C@H](CCCCN)NC(=O)[C@H](CO)NC(=O)[C@H](CCCNC(=N)N)NC(=O)[C@@H]2CCCN2C(=O)[C@H](CCC(=O)O)NC(=O)[C@H](Cc2ccccc2)NC1=O)C(=O)O` the Tmax was 1 h (healthy human, plasma; subcutaneous, 20 mg, aqueous formulation).
`NC(CO)(CO)CCc1ccc(Sc2cccc(OCc3ccccc3)c2)cc1Cl` has a Tmax of 4 h (human, fed, whole blood; oral, 3 mg, median, alone).
`Fc1ccc([C@@H]2CCNC[C@H]2COc2ccc3c(c2)OCO3)cc1` gave a Tmax of 4.4 h (human, CYP2D6 intermediate metabolizers; oral, 20 mg, steady state, geometric mean).
The Tmax of `CC(C)(C)OC[C@@H]1C(=O)NCCN1C(=O)C[C@H](N)Cc1cc(F)c(F)cc1F` is reported as 1.5 h (human, plasma; oral, steady state, EP treatment).
For `Cc1nc2ccc(F)cc2n1-c1nc(N)c(F)c(Nc2ccc(C(F)(F)F)cc2)n1`, the Tmax was roughly 4 h (human patients, plasma; 200 to 400 mg).
With `CO[C@@H]1[C@H](OC(=O)N2CC(CCN3CCOCC3)C2)CC[C@]2(CO2)[C@H]1[C@@]1(C)O[C@@H]1CC=C(C)C` the Tmax was 0.26 h (humans, plasma; subcutaneous, 1.8 mg twice weekly, fifth dose).
For `CNC(=O)c1ccc(-c2cnc3ncc(Cc4ccc5ncccc5c4)n3n2)cc1F`, the Tmax was 1.25 h (human, plasma; oral, 200 mg, median).

A few entries again:
For `C[C@H]1[C@@H](O)O[C@@H]2O[C@@]3(C)CC[C@H]4[C@H](C)CC[C@@H]1[C@@]24OO3`, the Tmax was 0.55 h (human, both sexes, plasma; oral, dose not given, fixed-dose combination).
`COc1ccc([C@@H](O)c2cc(-c3ncnc4cc(N5CCOCC5)ccc34)c(F)cc2Cl)nn1` has a Tmax of 1.42 h (human, plasma; oral, 200 mg once daily, single dose, median).
The Tmax of `CC(C)[C@H](N)C(=O)NCCCS(=O)(=O)O` is reported as 0.5 h (median; human, plasma; oral, 340 mg once daily days 8-14, day 14, fasted, capsule).
For `Cc1cc(-c2nccc3c2ccn3CC(=O)Nc2ccc(-c3cnccn3)cn2)ccn1`, the Tmax was 1.3 h (human, plasma; oral, 15 mg once daily, day 16, median).
For `CC(C)(C(=O)NC1C2CC3CC1CC(C(N)=O)(C3)C2)N1CCN(c2ccc(C(F)(F)F)cn2)CC1` (centres unmarked), the Tmax was 1.6 h (human, plasma; 10 mg once daily, 5 days, median).
`CN[C@@H](C)C(=O)N[C@H]1CN(S(=O)(=O)c2cccc(S(=O)(=O)N3CC[C@H]4CC[C@@H](C(=O)NC(c5ccccc5)c5ccccc5)N4C(=O)[C@@H](NC(=O)[C@H](C)NC)C3)c2)CC[C@H]2CC[C@@H](C(=O)NC(c3ccccc3)c3ccccc3)N2C1=O` gave a Tmax of 0.47 h (human, plasma; intravenous infusion, 20 mg, cycle 1 day 15).
For `CCn1cc(C(=O)N2CCOCC2)c(=O)c2cc(NC3Cc4ccccc4C3)cnc21`, the Tmax was 1.75 h (human, fasted; oral tablet, 300 mg single dose, median).
`C#Cc1cccc(Nc2ncnc3cc(OCCOC)c(OCCOC)cc23)c1` gave a Tmax of 3 to 4 h (human; oral, 100 mg daily).
